Measured values gathered from unrelated publications.
Each line is one published result; not all experiments were run side by side. ± marks the error that the study gave.
UniProt O95983, sequence (whole entry, looked up): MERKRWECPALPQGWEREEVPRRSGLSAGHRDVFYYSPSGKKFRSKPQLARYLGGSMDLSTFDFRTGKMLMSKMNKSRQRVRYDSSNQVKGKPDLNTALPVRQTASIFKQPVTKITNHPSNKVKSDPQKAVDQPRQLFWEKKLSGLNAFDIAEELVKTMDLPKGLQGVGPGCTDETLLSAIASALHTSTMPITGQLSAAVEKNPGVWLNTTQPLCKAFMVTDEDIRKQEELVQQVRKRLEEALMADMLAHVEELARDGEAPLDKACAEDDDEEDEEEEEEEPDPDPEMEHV
UniProt P28562, sequence (whole entry, looked up): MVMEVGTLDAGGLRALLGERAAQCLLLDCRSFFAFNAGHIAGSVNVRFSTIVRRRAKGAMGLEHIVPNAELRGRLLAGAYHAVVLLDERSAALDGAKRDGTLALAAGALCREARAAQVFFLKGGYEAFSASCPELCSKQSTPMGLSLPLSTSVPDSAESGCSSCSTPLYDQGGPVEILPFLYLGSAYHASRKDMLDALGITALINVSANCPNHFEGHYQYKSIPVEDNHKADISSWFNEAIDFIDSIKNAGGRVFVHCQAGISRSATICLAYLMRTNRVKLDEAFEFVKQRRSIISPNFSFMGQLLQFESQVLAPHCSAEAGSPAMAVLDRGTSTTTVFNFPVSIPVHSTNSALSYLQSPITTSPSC

| SMILES | tested on | assay | system | conditions | how to read | quantity | result |
| --- | --- | --- | --- | --- | --- | --- | --- |
| CC[C@H](C)[C@H](NC(=O)[C@H](Cc1ccccc1)NC(=O)[C@H](CCC(=O)O)NC(=O)[C@H](CCCNC(=N)N)NC(=O)[C@H](C)NC(=O)[C@H](C)NC(=O)[C@H](CCC(N)=O)NC(=O)[C@H](CCC(=O)O)NC(=O)[C@H](CCC(=O)O)NC(=O)[C@H](CC(C)C)NC(=O)[C@H](Cc1ccc(O)cc1)NC(=O)[C@H](CO)NC(=O)[C@H](CO)NC(=O)[C@@H](NC(=O)[C@H](CC(=O)O)NC(=O)[C@H](CO)NC(=O)[C@@H](NC(=O)[C@H](Cc1ccccc1)NC(=O)[C@@H](NC(=O)CNC(=O)[C@H](CCC(=O)O)NC(=O)[C@H](C)NC(=O)CCc1c[nH]cn1)[C@@H](C)O)[C@@H](C)O)C(C)C)C(=O)N[C@@H](C)C(=O)N[C@@H](Cc1c[nH]c2ccccc12)C(=O)N[C@@H](CC(C)C)C(=O)N[C@H](C(=O)N[C@@H](CCCNC(=N)N)C(=O)NCC(=O)N[C@@H](CCCNC(=N)N)C(=O)N[C@@H](CCCCNC(=O)COCCOCCNC(=O)COCCOCCNC(=O)CC[C@H](NC(=O)CCCCCCCCCCCCCCCCC(=O)O)C(=O)O)C(=O)NCC(=O)NCC(=O)N[C@@H](CO)C(=O)N[C@@H](CCCCNc1c(NCCCCCN(O)C(=O)CCC(=O)NCCCCCN(O)C(=O)CCC(=O)NCCCCCN(O)C(C)=O)c(=O)c1=O)C(=O)O)C(C)C [zirconium-89 labelled] |  |  | rat, duodenum content | intravenous, 3 nmol/kg, 4 h |  | tissue uptake | 0.13 %ID/g |
| CC(C)(Oc1ccc(Cl)cc1)C(=O)O | HEK293-H PPARγ-UAS-bla cells | cell confluency, IncuCyte imaging |  | 24 h, nominal concentration |  | IC10 | 1410 µM |
| C[C@H](NC(=O)[C@H](CCCNC(=N)N)NC(=O)[C@H](Cc1c[nH]c2ccccc12)NC(=O)[C@H](CCCNC(=N)N)NC(=O)[C@H](Cc1c[nH]c2ccccc12)NC(=O)[C@H](Cc1c[nH]c2ccccc12)NC(=O)[C@H](Cc1c[nH]c2ccccc12)NC(=O)[C@H](CCCNC(=N)N)NC(=O)[C@H](Cc1c[nH]c2ccccc12)NC(=O)[C@@H](N)CCCNC(=N)N)C(N)=O | HD11 macrophages |  |  |  |  | LC50 | 110 µM |
| N=C(N)NCCC[C@H](NC(=O)[C@H](CCCNC(=N)N)NC(=O)[C@H](CCCNC(=N)N)NC(=O)[C@H](CCC(N)=O)NC(=O)[C@H](CCCNC(=N)N)NC(=O)[C@H](CCCNC(=N)N)NC(=O)[C@H](CCCCN)NC(=O)[C@H](CCCCN)NC(=O)[C@H](CCCNC(=N)N)NC(=O)CNC(=O)[C@@H](N)Cc1ccc(O)cc1)C(=O)O | DF-1 | LDH release |  | 1 µM, 1 h |  | viability | 97.2 ± 1.22% |
| O=c1ccc2ccccc2o1 | HepG2 | cell count |  | concentration not given, 24 h, high-content imaging |  | response probability | 0.03% |
| O=C(O)C(F)(F)C(F)(F)C(F)(F)C(F)(F)C(F)(F)F | hTERT-RPTEC parental | LDH release | culture medium | concentration not given, 24 h, 96-well plate |  | LDH activity in medium | 29.2 mU/mL |
| CC(C)CC(NC(=O)OCc1ccccc1)C(=O)NC(C(=O)NCC(=O)C=[N+]=[N-])C(C)C (stereo not shown) | 293T-ACE2 |  |  | 40 (unit not given) |  | CC50 | > 2.5 µM |
| CC(c1ccccc1)(c1ccc(O)cc1)c1ccc(O)cc1 | HepG2 spheroids, dissociated | annexin V-FITC/PI flow cytometry |  | 10 µM, 24 h |  | early apoptotic cells | 13.9 ± 8.16% |
| Cc1cc(C(=O)NC(C)(C)COc2cccc3c2C(N)=NS(=O)(=O)N3)cc(C)n1 | Salmonella typhimurium | Ames test, confirmatory | TA1537 | 3333 µg/plate, added: rat liver S9 | relative to: solvent control | revertant ratio | 0.9 |
| CC[C@H](C)[C@H](NC(=O)[C@H](CCCNC(=N)N)NC(=O)[C@H](Cc1c[nH]c2ccccc12)NC(=O)[C@H](CCCNC(=N)N)NC(=O)[C@H](Cc1c[nH]c2ccccc12)NC(=O)[C@H](Cc1c[nH]c2ccccc12)NC(=O)[C@H](Cc1c[nH]c2ccccc12)NC(=O)[C@H](CCCNC(=N)N)NC(=O)[C@H](Cc1c[nH]c2ccccc12)NC(=O)[C@H](CCCNC(=N)N)NC(=O)CN)C(N)=O | HD11 macrophages |  |  |  |  | LC50 | > 512 µM |
| C[C@H]1CN(c2n[nH]c3nc(N[C@H]4CC[C@H](NS(=O)(=O)CCC(F)(F)F)CC4)ncc23)CCO1 | Methyl-CpG-binding domain protein 3 (MBD3, Homo sapiens, UniProt O95983) | Kinobeads competition, item: MBD3 |  | 0.032 µM, unit not given | relative to: vehicle | remaining binding | 1.11 |
| COc1cc2c(Oc3ccc4[nH]c(C)cc4c3F)ccnc2cc1OCC1(N)CC1 |  |  | paediatric recurrent refractory sarcoma | concentration not given, whole group |  | grade 3 Diarrhoea | 0% |
| COc1cc(Nc2ncc(F)c(Nc3ccc4c(n3)NC(=O)C(C)(C)O4)n2)cc(OC)c1OC | Dual specificity protein phosphatase 1 (DUSP1, Homo sapiens, UniProt P28562) | phosphatase activity, inhibitor |  |  |  | IC50 | > 10 µM |
| CC[C@H](C)[C@H](NC(=O)[C@@H](N)CC(N)=O)C(=O)N1CCC[C@H]1C(=O)N1CCC[C@H]1C(=O)N[C@@H](CC(C)C)C(=O)N[C@H](C(=O)N[C@@H](CCC(N)=O)C(=O)N[C@H](C(=O)N1CCC[C@H]1C(=O)N[C@H](C(=O)N[C@H](C(=O)N[C@H](C(=O)N1CCC[C@H]1C(=O)N1CCC[C@H]1C(=O)N[C@@H](Cc1ccccc1)C(=O)N[C@@H](CC(C)C)C(=O)N[C@@H](CCC(N)=O)C(=O)N1CCC[C@H]1C(=O)N[C@@H](CCC(=O)O)C(=O)O)C(C)C)C(C)C)C(C)C)[C@@H](C)O)[C@@H](C)O | Caco-2 monolayers |  |  | 10 µM, 60 min, added: cytochalasin D 0.5 mg/mL preincubated 30 min | relative to: untreated | transport | no effect |
| COc1cc2c(c(OC)c1OC)-c1ccc(OC)c(=O)cc1[C@@H](NC(C)=O)CC2 | CHO-WBL |  |  | 8 µg/mL, 3 h, without S9 |  | binucleated cells with micronuclei | 5.3% |
| CN1CC[C@@H](c2c(O)cc(O)c3c(=O)cc(-c4ccc(C(F)(F)F)cc4Cl)oc23)[C@@H]1CO |  | item: Thrombocytopenia | relapsed B-cell malignancies or AML | oral, 100 mg, grade 3-4, continuous dosing |  | patients with adverse event | 0% |
| Cc1cc(C(C)(C)c2ccc(O)c(C)c2)ccc1O | HepG2 spheroids, dissociated | annexin V-FITC/PI flow cytometry |  | 0.01 µM, 96 h |  | late apoptotic cells | 34.4 ± 11.2% |
| CC(C)(O)Cc1nc(N)[nH]c(=O)c1Br | HEL human embryonic lung fibroblasts | cell morphology alteration |  |  |  | minimum cytotoxic concentration | > 100 µM |
| CNC(=O)Oc1cccc2ccccc12 | SH-SY5Y | cell viability, propidium iodide staining |  | 24 h, freely dissolved concentration |  | IC10 | 0.573 µM |
| CO[C@H]1C[C@@H]2CC[C@@H](C)[C@@](O)(O2)C(=O)C(=O)N2CCCC[C@H]2C(=O)O[C@H]([C@H](C)C[C@@H]2CC[C@@H](OC(=O)NCCOCCOCCOCCOCCOCCOCCOCCOCCC(=O)N3CCc4cc(Cn5nc(-c6ccc7oc(N)nc7c6)c6c(N)ncnc65)ccc4C3)[C@H](OC)C2)C[C@@H](O)[C@H](C)/C=C(\C)[C@@H](O)[C@@H](OC)C(=O)[C@H](C)C[C@H](C)/C=C/C=C/C=C/1C |  |  | patients with advanced solid tumours | intravenous, 6 mg weekly, any grade |  | constipation incidence | 25% |
| O=C(O)C(F)(F)C(F)(F)C(F)(F)C(F)(F)F | hTERT-RPTEC parental | LDH release | culture medium | concentration not given, 24 h, 96-well plate |  | LDH activity in medium | 25.9 mU/mL |
| N#Cc1c[nH]c2ccccc12 | uninfected HCT-8 | cytotoxicity, Hoechst nuclei count |  |  |  | EC50 | 795 µM |

A few entries again:
| SMILES | tested on | assay | system | conditions | how to read | quantity | result |
| --- | --- | --- | --- | --- | --- | --- | --- |
| CN1CC[C@@H](c2c(O)cc(O)c3c(=O)cc(-c4ccc(C(F)(F)F)cc4Cl)oc23)[C@@H]1CO |  | item: Thrombocytopenia | relapsed B-cell malignancies or AML | oral, 100 mg, grade 3-4, continuous dosing |  | patients with adverse event | 0% |
| Cc1cc(C(C)(C)c2ccc(O)c(C)c2)ccc1O | HepG2 spheroids, dissociated | annexin V-FITC/PI flow cytometry |  | 0.01 µM, 96 h |  | late apoptotic cells | 34.4 ± 11.2% |
| CC(C)(O)Cc1nc(N)[nH]c(=O)c1Br | HEL human embryonic lung fibroblasts | cell morphology alteration |  |  |  | minimum cytotoxic concentration | > 100 µM |
| CNC(=O)Oc1cccc2ccccc12 | SH-SY5Y | cell viability, propidium iodide staining |  | 24 h, freely dissolved concentration |  | IC10 | 0.573 µM |
